Experimental data from different studies.
Compare with care: the assays were run in different laboratories. Values joined by “and” are separate records of one study, mostly repeats; a detail may differ.
B1: panD D95A (Mycobacterium abscessus, UniProt B1MGV7); chain MMFRTMMKSKIHRATVTHADLHYVGSVTIDPDLMEAADLLEGEQVTIVDIDNGARLETYAITGTRGSGVIGINGAAAHLVHPGDLVIIIAYGVMTAEEARAFTPRVVFVDSDNKQVELGEHSDDPAYVPENFGLVSPRGLV
B2: fphE (Staphylococcus aureus, UniProt Q2FDS6); sequence looked up; chain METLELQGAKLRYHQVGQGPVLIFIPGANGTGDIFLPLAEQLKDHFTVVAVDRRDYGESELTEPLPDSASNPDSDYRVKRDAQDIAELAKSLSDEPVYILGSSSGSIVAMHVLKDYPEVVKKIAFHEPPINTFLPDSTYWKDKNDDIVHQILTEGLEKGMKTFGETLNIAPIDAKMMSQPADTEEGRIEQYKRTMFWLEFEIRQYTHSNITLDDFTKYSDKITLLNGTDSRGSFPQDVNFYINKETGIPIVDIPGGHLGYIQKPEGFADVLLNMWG
B3: ClpP2 (Pseudomonas aeruginosa, UniProt Q9HYR9); sequence looked up; chain MKTDDKDREGGDSHGAIGAKLMEYALKVRKVFVTGGVDEKMAKDVVQQLHILASISDDPIYMFVNSPGGHVESGDMIFDAIRFITPKVIMIGSGSVASAGALIYAAADKENRYSLPNTRFLLHQPSGGIQGPASNIEIYRREIVRMKERLDRIFAEATGQTPEKISADTERDFWLNAEEAVQYGLVNKIIVSEREITLPGQ
B4: aer2 A184C/Q282C (Pseudomonas aeruginosa, UniProt Q9I6V6); chain MGLFNAHAVAQQRADRIATLLQSFADGQLDTAVGEAPAPGYERLYDSLRALQRQLREQRAELQQVESLEAGLAEMSRQHEAGWIDQTIPAERLEGRAARIAKGVNELVAAHIAVKMKVVSVVTAYGQGNFEPLMDRLPGKKAQITEAIDGVRERLRGAAEATSAQLATAAYNARIKSALDNVSCNVMIADNDLNIIYMNRTVSEMLGRAEADIRKQLPNFDAGRLMGANIDVFHKNPAHQRHLLANLTGVHKAELNLGGRRFSLDVVPVFNDANERLGSAVCWTDRTEEHRAEQEVSQLVQAAAAGDFSKRVEEAGKEGFFLRLAKDLNSLVDTADRGLRDVSRMLGALAQGDLTQRIEADYQGTFGQLKDFSNDTAQSLSRMLGQIREAADTINTAASEIASGNAELSARTEQQASSLEETASSMEELTSTVKLNAENARQANSLAANASEVATQGGTVVQKVVSTMSSINESARKIADIIGVIDGIAFQTNILALNAAVEAARAGEQGRGFAVVAGEVRTLAQRSAAAAKEIKTLISDSVDKVENGNTLVAQAGQTMSDIVVAIRRVTDIMSEIAAASAEQSTGIEEVNSAVSQMDDMTQQNAALVEEAAAAAEAMQEQAGLLNQSVAVFRLDTPPSVVQLASARPSAPRPSAPAPLARSGMARASKARKEDGWEEF
B5: ccpA 1-329 (Staphylococcus aureus, UniProt Q5HF38); chain MTVTIYDVAREARVSMATVSRVVNGNQNVKAETKNKVNEVIKRLNYRPNAVARGLASKKTTTVGVIIPDISNIYYSQLARGLEDIATMYKYHSIISNSDNDPEKEKEIFNNLLSKQVDGIIFLGGTITEEMKELINQSSVPVVVSGTNGKDAHIASVNIDFTEAAKEITGELIEKGAKSFALVGGEHSKKAQEDVLEGLTEVLNKNGLQLGDTLNCSGAESYKEGVKAFAKMKGNLPDAILCISDEEAIGIMHSAMDAGIKVPEELQIISFNNTRLVEMVRPQLSSVIQPLYDIGAVGMRLLTKYMNDEKIEEPNVVLPHRIEYRGTTK
B6: mutL 460-658 (Neisseria gonorrhoeae, UniProt Q5F8M6); chain SQSELPPLGFAIAQLLGIYILAQAEDSLLLIDMHAAAERVNYEKMKRQRQENGNLQSQHLLIPVTFAASHEECAALADHAETLAGFGLELSDMGGNTLAVRAAPVMLGKSDVVSLARDVLGELAQVGSSQTIASHENRILATMSCHGSIRAGRRLTLPEMNALLRDMENTPRSNQCNHGRPTWVKLTLKELDTLFLRGQ
B7: protein (Pseudomonas putida, UniProt A0ABM7EIE4); sequence looked up; chain MLRILLIDDTQHKLGRLKAALIEAGFEVTEAPGLTIDLPACVETVRPDVVLIDTDSPDRDVMEQVVLVSRDQPRPIVLFTDEHDPGVMRQAIQAGVSAYIVEGIHAARLQPILDVAMARFESDQALKAQLVARDQQLAERKRIEQAKGLLMKMKDCNEEQAYTLMRRQAMSRQQKLIQVAEQIIAMHEMLG
B8: protein 1-735 R432A (UniProt C7Z7K1); chain MSNLKDFSQPGSGQESNFGVDFVIHYKVPAAERDEAEAGFVQLIRALTTVGLATEVRHGENESLLVFVKVASPDLFAKQVYRARLGDWLHGVRVSAPHNDIAQALQDEPVVEAERLRLIYLMITKPHNEGGAGVTPTNAKWKHVESIFPLHSHSFNKEWIKKWSSKYTLEQTDIDNIRDKFGESVAFYFAFLRSYFRFLVIPSAFGFGAWLLLGQFSYLYALLCGLWSVVFFEYWKKQEVDLAVQWGVRGVSSIQQSRPEFEWEHEAEDPITGEPVKVYPPMKRVKTQLLQIPFALACVVALGALIVTCNSLEVFINEVYSGPGKQYLGFLPTIFLVIGTPTISGVLMGAAEKLNAMENYATVDAHDAALIQKQFVLNFMTSYMALFFTAFVYIPFGHILHPFLNFWRATAQTLTFSEKELPTREFQINPAAISNQMFYFTVTAQIVNFATEVVVPYIKQQAFQKAKQLKSGSKVQEDHEEEAEFLQRVREECTLEEYDVSGDYREMVMQFGYVAMFSVAWPLAACCFLVNNWVELRSDALKIAISSRRPIPWRTDSIGPWLTALSFLSWLGSITSSAIVYLCSNSKNGTQGEASPLKAWGLLLSILFAEHFYLVVQLAVRFVLSKLDSPGLQKERKERFQTKKRLLQENLGQDAAEEAAAPGIEHSEKITREALEEEARQASIRGHGTPEEMFWQRQRGMQETIEIGRRMIEQQLAAGKNGKKSAPAVPSEKAS
B9: ilvA 1-422 (Staphylococcus aureus, UniProt Q2FF63); sequence looked up; chain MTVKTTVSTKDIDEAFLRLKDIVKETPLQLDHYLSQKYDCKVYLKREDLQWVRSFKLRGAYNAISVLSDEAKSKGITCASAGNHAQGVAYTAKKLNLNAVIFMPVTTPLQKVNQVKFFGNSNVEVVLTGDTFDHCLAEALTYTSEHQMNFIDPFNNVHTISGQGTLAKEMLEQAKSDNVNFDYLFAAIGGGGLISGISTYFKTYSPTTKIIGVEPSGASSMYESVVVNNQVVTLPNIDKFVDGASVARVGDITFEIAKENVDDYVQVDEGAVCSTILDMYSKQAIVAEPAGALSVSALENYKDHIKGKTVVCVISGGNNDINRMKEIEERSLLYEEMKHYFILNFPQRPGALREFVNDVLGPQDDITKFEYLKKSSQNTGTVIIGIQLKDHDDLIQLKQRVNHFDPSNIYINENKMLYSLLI
B10: tad1 Q98A/E99A/M102A/W103A/K106A (Metaclostridioides mangenotii, UniProt P0DW61); chain MEIKNGLCTQKYTKVYAEDKEKWKFNAPHHFIVGKADCEDEYIEPIEYVNFQEGPIKEYGINGVNNEDLILMVITRLQAFQDSPYKCRENAMAITKLAACLAALGARTLDREVKGIEGTSEI
B11: pyrE E19A/R53A/R56A (Burkholderia cenocepacia, UniProt B4E589); chain MTGYDRQSISDTTAKILLAVQAVHFNAEKPFIFTSGWASPVYIDCRKLISYPAVRAALMEMAETTITRDIGFEQIDAVAGGETAGIPFAAWIADRMMVPMQYVRKKPKGFGRNAQIEGHLEEGSRVLLVEDLTTDSRSKINFVNALRTAGATVNHCFVLFHYNIFKESVSVLKDIDVDLHALATWWDVLRVAKASGYFETKTLDEVEKFLHAPAEWSAAHGGATAPKE
B12: gpM 1-109 (bacteriophage lambda, UniProt P03737); chain MKTFRWKVKPGMDVASVPSVRKVRFGDGYSQRAPAGLNANLKTYSVTLSVPREEATVLESFLEEHGGWKSFLWTPPYEWRQIKVTCAKWSSRVSMLRVEFSAEFEQVVN
B13: ariA (Escherichia coli, UniProt A0ABF7PQ30); chain AIRTISKIELSKIHNRYNLTVDFFNDLNVIHGKNGAGKSTLIHVIANIVNGDFIRFAFLIFEEIKATYSDGLKIVIRRDKIDEQSFISVTLSNGKYIKFAVGEAMATVREIESERHLRERDVKSMLAMDIDKFVKENELQKVRASYFPAFRTMLEAWSSSSDVGYERRVIRSSFYNRKASAFARELFGQFLPSINYPSPMEIEDRLREEIRRAQLGIAAYESRTFSESFVKVFSALFDNSSVEGEITGELLKEIEGLAIAQDSSIKNGYYAEYSKVYEEIRSLINRNLKGKVENSVSGALVVYRDALRDRQDYQEKAFSEIDNYMSSVNSFLEDKEMAYDFDLRRKYPKVGLKFPDGSWSPIRVLSSGERQLLTMLYAASKMGDDAIVLIDEPEISLHIDWQEDLLKRMLSQLSGRQIIVCTHSPSIATGYEDFMINISPEFISSRDNDNHKDSEEMEEDESL
B14: panD F101A (Mycobacterium abscessus, UniProt B1MGV7); chain MMFRTMMKSKIHRATVTHADLHYVGSVTIDPDLMEAADLLEGEQVTIVDIDNGARLETYAITGTRGSGVIGINGAAAHLVHPGDLVIIIAYGVMTDEEARAATPRVVFVDSDNKQVELGEHSDDPAYVPENFGLVSPRGLV
Sequence of UniProt P71070 (whole entry, looked up): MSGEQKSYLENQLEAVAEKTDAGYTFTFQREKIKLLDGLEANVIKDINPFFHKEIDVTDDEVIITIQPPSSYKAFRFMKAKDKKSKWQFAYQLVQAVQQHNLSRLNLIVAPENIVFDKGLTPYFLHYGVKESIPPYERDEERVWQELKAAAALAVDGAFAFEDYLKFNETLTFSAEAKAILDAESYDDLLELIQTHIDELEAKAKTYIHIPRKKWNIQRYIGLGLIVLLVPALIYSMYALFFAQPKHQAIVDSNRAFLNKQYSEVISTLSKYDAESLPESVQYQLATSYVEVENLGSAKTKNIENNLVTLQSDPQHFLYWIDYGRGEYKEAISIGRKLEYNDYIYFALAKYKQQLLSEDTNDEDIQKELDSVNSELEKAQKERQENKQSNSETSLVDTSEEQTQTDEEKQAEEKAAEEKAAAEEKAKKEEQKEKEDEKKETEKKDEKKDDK
Sequence of UniProt P05030 (whole entry, looked up): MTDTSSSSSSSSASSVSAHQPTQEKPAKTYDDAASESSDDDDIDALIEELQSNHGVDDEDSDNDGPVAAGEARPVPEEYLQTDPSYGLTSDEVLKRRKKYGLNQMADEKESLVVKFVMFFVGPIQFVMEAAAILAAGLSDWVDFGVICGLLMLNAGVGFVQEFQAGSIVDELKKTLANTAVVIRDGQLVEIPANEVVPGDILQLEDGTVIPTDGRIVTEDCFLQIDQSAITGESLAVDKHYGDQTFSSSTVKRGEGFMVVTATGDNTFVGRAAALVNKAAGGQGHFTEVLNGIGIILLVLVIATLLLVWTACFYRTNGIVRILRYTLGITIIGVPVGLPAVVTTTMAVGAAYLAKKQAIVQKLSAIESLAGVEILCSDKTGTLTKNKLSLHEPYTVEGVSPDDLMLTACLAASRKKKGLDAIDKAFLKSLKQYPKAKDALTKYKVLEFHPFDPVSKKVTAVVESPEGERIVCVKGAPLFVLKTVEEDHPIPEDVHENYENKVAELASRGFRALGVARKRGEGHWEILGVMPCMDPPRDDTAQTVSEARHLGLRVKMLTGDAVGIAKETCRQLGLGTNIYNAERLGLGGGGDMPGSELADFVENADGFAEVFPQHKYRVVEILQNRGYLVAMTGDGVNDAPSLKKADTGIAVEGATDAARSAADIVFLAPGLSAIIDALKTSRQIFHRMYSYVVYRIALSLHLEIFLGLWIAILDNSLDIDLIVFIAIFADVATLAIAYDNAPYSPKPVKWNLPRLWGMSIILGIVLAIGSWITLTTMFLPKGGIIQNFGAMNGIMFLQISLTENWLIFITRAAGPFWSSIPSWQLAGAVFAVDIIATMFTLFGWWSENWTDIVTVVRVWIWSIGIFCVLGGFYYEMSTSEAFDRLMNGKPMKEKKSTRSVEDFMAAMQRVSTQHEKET

Molecule	target or system	test	test system	conditions	how to read	measurement	result
B1 (panD D95A)	itself	native gel	–	–	–	subunits per oligomer	4
B2 (fphE)	itself	SEC	–	–	–	subunits per oligomer	2
B3 (ClpP2)	itself	cryo-EM	–	–	–	subunits per oligomer	7
B4 (aer2 A184C/Q282C)	itself	cross-linking	–	–	–	subunits per oligomer	2
gpE major capsid protein (bacteriophage lambda, UniProt P03713)	itself	cryo-EM	–	–	–	subunits per oligomer	415
insulin human	–	measured: NRGN mRNA	EcoHIV-infected mouse, brain	i.p., dose not given	relative to: PBS	fold change	1.02
PMA1 (Saccharomyces cerevisiae, UniProt P05030)	itself	SEC	–	–	–	subunits per oligomer	6
B5 (ccpA 1-329)	itself	SEC	–	pH 7.4	–	subunits per oligomer	2
B6 (mutL 460-658)	itself	SEC-MALS	–	–	–	subunits per oligomer	2
B7 (protein)	itself	SEC	–	–	–	subunits per oligomer	4
B8 (protein 1-735 R432A)	itself	cryo-EM	–	–	–	subunits per oligomer	2
B9 (ilvA 1-422)	itself	SEC-MALS	–	–	–	subunits per oligomer	6
yukC (Bacillus subtilis, UniProt P71070)	itself	cryo-EM	–	–	–	subunits per oligomer	2
large T antigen (SV40, UniProt P03070)	itself	native gel or EMSA	–	–	–	subunits per oligomer	12 and 6
B10	itself	SEC-MALS	–	–	–	subunits per oligomer	2
B11 (pyrE E19A/R53A/R56A)	itself	SEC	–	–	–	subunits per oligomer	2
B12 (gpM 1-109)	itself	cryo-EM	–	–	–	subunits per oligomer	6
B13 (ariA)	itself	SEC-MALS	–	–	–	subunits per oligomer	6
B14 (panD F101A)	itself	native gel	–	–	–	subunits per oligomer	4
